# Measured values gathered from unrelated publications.
# Parts stem from different laboratories: compare values within a part only.

# Set 1 — technique: RNA Bind-n-Seq; form: RNA; matrix: in vitro; tested at: 1 µM; notes: whole 134-nt RNA, ends assumed; together with: 150 mM KCl; reference: input library; direction: higher = stronger binding
# Target: Ras GTPase-activating protein-binding protein 1, RRM domain (G3BP1, Homo sapiens, UniProt Q13283)
# Chain of UniProt Q13283 (whole entry, looked up): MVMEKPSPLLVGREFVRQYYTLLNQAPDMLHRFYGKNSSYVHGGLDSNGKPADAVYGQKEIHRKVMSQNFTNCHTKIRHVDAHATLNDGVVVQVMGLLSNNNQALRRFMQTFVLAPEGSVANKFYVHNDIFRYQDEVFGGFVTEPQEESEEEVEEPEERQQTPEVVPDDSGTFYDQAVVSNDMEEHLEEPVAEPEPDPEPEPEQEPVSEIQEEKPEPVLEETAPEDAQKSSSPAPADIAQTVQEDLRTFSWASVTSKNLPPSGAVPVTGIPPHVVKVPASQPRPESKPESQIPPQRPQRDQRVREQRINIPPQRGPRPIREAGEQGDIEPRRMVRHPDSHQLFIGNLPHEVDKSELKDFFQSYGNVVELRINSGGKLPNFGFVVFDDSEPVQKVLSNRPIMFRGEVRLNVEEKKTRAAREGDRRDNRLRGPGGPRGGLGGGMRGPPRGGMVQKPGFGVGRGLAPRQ
Oligonucleotide,log2 enrichment
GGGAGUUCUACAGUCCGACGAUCAAGUCCUGUGCUACACAUCGUAUGUACCGAAUCGGUUUUUUUGGAGGAAAAAAAGGAAAGUAUUAUGUUACGCCGUUCGGAUCUGCACUUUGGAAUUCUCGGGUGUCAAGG,-0.233
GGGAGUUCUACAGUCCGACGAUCGCAGGAAGUAAAAACAAAUGGAAAUGCUUCGGAUAGUGGCAGGGGUGGGGGUUGCUAAGGAAAGGGUGGGAUGGGGGUGGGUAAAGAGUUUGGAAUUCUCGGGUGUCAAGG,0.745
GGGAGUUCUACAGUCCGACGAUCUCAAGUCCUGUGCUACACAUCGUAUGUACCGAAUCGGUGGUUUUUGGAAAAAGGAAAGUAUUAUGUUACGCCGUUCGGAUCUGCACUUCCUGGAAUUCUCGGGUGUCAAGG,-0.0688
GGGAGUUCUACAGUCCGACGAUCCACAGACAACACGCACCCACACAGACACAGAGGGAAGGGGUUGGGAUGGAGACAGGGUGCACAGCAGGGCGGGGUAGGACCCCAGCCCCUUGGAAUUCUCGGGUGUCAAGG,-0.13
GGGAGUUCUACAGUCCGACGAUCUCAAGUCCUGUGCUACACAUCGUAUGUACCGAAUCGGGUGGGUUUGGGUUUGGGAAAGUAUUAUGUUACGCCGUUCGGAUCUGCACUUCCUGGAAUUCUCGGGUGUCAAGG,0.536
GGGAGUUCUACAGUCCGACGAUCAAGUCCUGUGCUACACAUCGUAUGUACCGAAUCGGGUUUUUUUGGGAAAGGGAGGGAAAGUAUUAUGUUACGCCGUUCGGAUCUGCACUUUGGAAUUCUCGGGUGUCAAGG,0.464
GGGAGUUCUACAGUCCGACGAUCAGUCCUGUGCUACACAUCGUAUGUACCGAAUCGGGGUUUUUGGGGAAAGGGGAGGGGAAAGUAUUAUGUUACGCCGUUCGGAUCUGCACUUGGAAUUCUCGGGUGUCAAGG,1.2
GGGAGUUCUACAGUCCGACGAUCCAAGUCCUGUGCUACACAUCGUAUGUACCGAAUCGGAAAAAGGUUUUUGGAAAGGAAAGUAUUAUGUUACGCCGUUCGGAUCUGCACUUCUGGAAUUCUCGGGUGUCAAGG,-0.318

# Set 2 — technique: RNA Bind-n-Seq; form: RNA; matrix: in vitro; tested at: 365 nM; reference: no-protein control; direction: higher = stronger binding
# Target: RNA binding protein fox-1 homolog 2, RRM domain, GST-SBP tag (RBFOX2, Homo sapiens, UniProt O43251-10, residues 100-194)
# Notes: natural RNA segment, single round, ends assumed
# Residues (chain): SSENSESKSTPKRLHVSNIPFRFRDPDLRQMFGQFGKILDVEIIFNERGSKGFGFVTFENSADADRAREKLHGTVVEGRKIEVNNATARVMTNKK
Oligonucleotide,RBNS enrichment (R)
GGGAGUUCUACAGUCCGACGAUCAGGAGCGGCCCUCAAGAUCUCUUUGCCGAGUUUGGGAGCCAUGAGCAAGUCCUUGGCUCCAUACUUCCCUCUAAUGUGAAGGGGAGGGGUCUGCCCUUUCCCUCCUUGGGUGGAAUUCUCGGGUGCCAA,0.378
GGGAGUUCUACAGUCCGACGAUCGAACAAGCCUCUGUGAAUAUUUUCAUCUGUAUAAAUGCACAUCACAAAUUAAAAUCUGAUUCUUUUCGUUUGGUUGUUUUAUUUUAAAGGGGGUAGGUGGAUGAAGGGGCUGGAAUUCUCGGGUGCCAA,0.782
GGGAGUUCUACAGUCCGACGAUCAGAUGCAUAAAUCCUUAGAUACCUGGGUUUUUUAAUAGGUUUAGGUUUGGGUAUUGUGUUUCUGGUCUUUUAACUCAAAAUUAAGGUUUGAGCUUUAAUAGGACUAAAUUUGGAAUUCUCGGGUGCCAA,0.354
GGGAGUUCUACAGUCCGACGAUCUUAAGAAACCAAAUAAAUUGGUUUUGCUUCCUUGCCAUGGAUUCUGGAAGGACAUAGUUCUUCUAAAAUUUCCUGUUAAUUGGCAUGUACGUCUCAUUUAAAGCAAAUUAUGGAAUUCUCGGGUGCCAA,0.337
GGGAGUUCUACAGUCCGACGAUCCAAUAAUGUUUCCAGAUCGAAUUUCCUCAUAGAGAAAAAAAAAAAGGUGUGCCUUGUGUCUGUGCUUCUCCGCUCUCUGAAAGGAUGGAUGGAUCUGAAGUUCUCAGCCCUGGAAUUCUCGGGUGCCAA,0.501

# Set 3 — technique: protein-binding microarray; form: double-stranded DNA, one strand shown; matrix: in vitro; tested at: 250 nM; notes: 60-bp whole probe; together with: salmon DNA 0.4 mg/ml; reference: random background probes; direction: higher = stronger binding; shared flanks, not repeated: GCCTAGCAC … GTCTTGATTCGCTTGACGCTGCTG
# Target: Interferon regulatory factor 5, full length, phosphomimetic (IRF5, Homo sapiens, UniProt Q13568-2, residues 1-514, K96S/S451D/S453D/S456D/S462D)
Oligonucleotide,log fluorescence [z-score]
TTAGGTTTCCATCTCCTTTAGTGCTAG,1.25
GACGGTTTCATTATCCTGACGTGCTAG,2.93
GACGGTATCCGTCTCGGGACGTGCTAG,0.012
TCTCTTTCCACTTGTCTTTTCGTGCTA,2.37
TCAGTTTTCCTTCATGTACTGTGCTAG,0.985
TCACACTTCCTTCTGCCACTGTGCTAG,0.403
TTAGATATCGGGTATCGGTTAGTGCTA,6.26

# Further values, each from its own experiment
Substance,target,test,test system,setting,scale,endpoint,value
"PhoQ, residues 284 288 289 292 302 303 SSCCRF","PhoP, residues 12 14 15 18 19 STWGI (Escherichia coli, UniProt P23836)","Sort-seq, item: YFP reporter",E. coli,"PhoQ-PhoP variant library, together with: 10 µM Mg2+","reference: high Mg2+ state, higher = stronger signaling",fold induction,8.06

# A few entries again (set 3):
Oligonucleotide,log fluorescence [z-score]
TTAGATATCGGGTATCGGTTAGTGCTA,6.26
